Results from different studies.
Each numbered part is a random draw from the data of one study; scales do not carry over between parts. Changes are numbered by the printed parent chain.

Block 1
Target: ATF7, bZIP domain (human)
Technique: DHFR protein complementation
Sample: yeast
Notes: single substitutions, most at no-binding floor
Relative to: wild-type JUN-FOS pair
Direction: higher = stronger binding
Starting sequence: JUN, bZIP domain (human); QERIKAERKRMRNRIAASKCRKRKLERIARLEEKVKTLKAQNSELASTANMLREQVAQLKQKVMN; partner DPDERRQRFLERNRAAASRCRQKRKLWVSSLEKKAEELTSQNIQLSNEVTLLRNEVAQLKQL
`E44V` gave a binding fitness of -1.06 natural log.
For `R53M`, the binding fitness was -1.42 natural log.
`M51N` gave a binding fitness of -0.986 natural log.
`A29N` has a binding fitness of -1.06 natural log.
`S43C` gave a binding fitness of -0.99 natural log.
For `K36T`, the binding fitness was -1.17 natural log.
`E33W` has a binding fitness of -1.18 natural log.
The binding fitness of `K36V` is reported as -1.13 natural log.
The binding fitness of `E54I` is reported as -1.14 natural log.
For `E54H`, the binding fitness was -0.985 natural log.
For `L38V`, the binding fitness was -1.36 natural log.
The binding fitness of `E44K` is reported as -0.989 natural log.
With `Q41L` the binding fitness was -1.09 natural log.
`A40C` has a binding fitness of -1.21 natural log.
`K36F` gave a binding fitness of -1.2 natural log.
For `N42I`, the binding fitness was -1.45 natural log.
`M51P` has a binding fitness of -1.53 natural log.
`S47A` has a binding fitness of -0.688 natural log.
With `L45V` the binding fitness was -1.41 natural log.
The binding fitness of `L59W` is reported as -1.32 natural log.
The binding fitness of `R30F` is reported as -0.808 natural log.
With `S43M` the binding fitness was -0.826 natural log.
The binding fitness of `K36W` is reported as -1.32 natural log.
The binding fitness of `S47P` is reported as -1.5 natural log.

Block 2
Target: Histone acetyltransferase KAT6A, winged helix 1, GST fusion (KAT6A, Homo sapiens, UniProt Q92794, residues 1-85)
Technique: protein binding microarray
Form: double-stranded DNA, one strand shown
Sample: in vitro
Concentration: not given
Notes: 8-mer, flanks averaged, mean of 2 arrays, mostly near background
Relative to: not given
Direction: higher = stronger binding
Residues (chain): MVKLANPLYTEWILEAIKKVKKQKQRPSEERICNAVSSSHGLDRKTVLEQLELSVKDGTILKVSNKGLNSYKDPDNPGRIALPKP
The E-score of `CGGCCCGC` is reported as 0.362.
`AAGTGATG` gave an E-score of -0.237.
With `GCGTCGCC` the E-score was 0.343.
For `ATACGAGC`, the E-score was -0.163.
`CAGCGATG` gave an E-score of -0.0179.
`AGCAGACT` gave an E-score of -0.0893.
For `CAACGGTG`, the E-score was 0.169.
`AATAGCGA` has an E-score of -0.0219.
For `CCCTGTCA`, the E-score was -0.196.
The E-score of `GGGTGGTA` is reported as -0.0553.
For `AATCTAAG`, the E-score was -0.141.
With `AGCGCGCC` the E-score was 0.455.
`AGTAATTG` has an E-score of -0.0801.
`GCTAGGAC` has an E-score of 0.0121.
The E-score of `GATAAGGA` is reported as -0.0654.
The E-score of `CCGAATTA` is reported as -0.115.
`CTTTGCCA` has an E-score of -0.15.
`TGCAGCCA` has an E-score of -0.152.
The E-score of `TACTGAAA` is reported as 0.0523.
`AAAGTAAA` gave an E-score of -0.231.
With `CCCGTGTA` the E-score was 0.218.
`ATTGATTG` has an E-score of -0.212.
For `GACATGCC`, the E-score was 0.0942.
For `ACGACACC`, the E-score was 0.0519.
With `ATCGAGCG` the E-score was 0.262.

Block 3
Target: ABI1, truncated, D143A, DHFR fusion (Arabidopsis thaliana)
Technique: DHFR PCA, deep sequencing
Sample: yeast
Notes: methotrexate growth selection, single substitutions
Together with: (+)-ABA 0.0091 µM
Relative to: wild-type fitted maximum
Direction: higher = stronger binding
Starting sequence: PYL1, truncated, DHFR fusion (Arabidopsis thaliana); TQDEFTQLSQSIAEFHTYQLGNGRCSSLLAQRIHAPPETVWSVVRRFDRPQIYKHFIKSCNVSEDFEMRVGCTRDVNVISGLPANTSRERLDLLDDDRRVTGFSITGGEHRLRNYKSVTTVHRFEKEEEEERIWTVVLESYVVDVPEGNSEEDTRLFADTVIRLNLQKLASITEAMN; partner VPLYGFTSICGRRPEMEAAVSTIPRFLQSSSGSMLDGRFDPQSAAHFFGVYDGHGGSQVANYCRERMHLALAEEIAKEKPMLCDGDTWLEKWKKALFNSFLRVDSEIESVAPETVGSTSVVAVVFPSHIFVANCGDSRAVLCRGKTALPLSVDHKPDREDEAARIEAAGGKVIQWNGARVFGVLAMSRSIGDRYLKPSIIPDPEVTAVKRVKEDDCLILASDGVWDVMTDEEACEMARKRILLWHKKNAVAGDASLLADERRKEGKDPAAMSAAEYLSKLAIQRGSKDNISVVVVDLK
`D96Q` — result for “relative binding score”: -1.32%.
`V62D` — result for “relative binding score”: 6.7%.
Under “relative binding score”, `G148L` is recorded as -1.99%.
For `A84R`, “relative binding score” read 8.47%.
For `L94T`, “relative binding score” read -6.61%.
`T101F`: “relative binding score” 65.9%.
Under “relative binding score”, `H110I` is recorded as -0.303%.
For `S171C`, “relative binding score” read 21.3%.
Under “relative binding score”, `E4C` is recorded as 7.27%.
Under “relative binding score”, `R24S` is recorded as 6.63%.
`R74H`: “relative binding score” -2.96%.
`S59L` — result for “relative binding score”: 0.463%.
For `N165I`, “relative binding score” read 0.379%.
`D48V` — result for “relative binding score”: 0.172%.
`R123M`: “relative binding score” 2.72%.
Under “relative binding score”, `L138V` is recorded as 4.32%.
`D65A` — result for “relative binding score”: 9.26%.

Block 4
Target: RNA binding protein fox-1 homolog 2, RRM domain, GST-SBP tag (RBFOX2, Homo sapiens, UniProt O43251-10, residues 100-194)
Technique: RNA Bind-n-Seq
Form: RNA
Sample: in vitro
Concentration: 365 nM
Notes: natural RNA segment, single round, ends assumed
Relative to: no-protein control
Direction: higher = stronger binding
Residues (chain): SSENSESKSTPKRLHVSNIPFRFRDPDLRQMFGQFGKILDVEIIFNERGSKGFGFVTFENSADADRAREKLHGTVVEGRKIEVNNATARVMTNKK
`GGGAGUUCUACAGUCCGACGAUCGGCUCUCUGUAGGCUGGUCCUAGUAGGUGACACCCAGCAACACCCCUGUUGGACAGGAUUGAUUGUUCGCAGUCUUAGACCAACACUUCAGUCAGAAAUGUUACUGGGAGUGGAAUUCUCGGGUGCCAA`: “RBNS enrichment (R)” 0.244.
Under “RBNS enrichment (R)”, `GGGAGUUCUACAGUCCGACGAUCUACUGCAGAUUAAGUAAAGAACUUAGAUGCUAAAUUACAUCUAAUUUUGUAUGUUUUUUUAAAUGUGUCUUUGAUGCAUACUUUAGAAGCACACUGGCUCGCGGUUUCCAUGGAAUUCUCGGGUGCCAA` is recorded as 0.276.
For `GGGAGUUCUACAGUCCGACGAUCUUUCAACCAGCGCUGCAAGAAGAGGAUGAGGAAAAUAUAAAAGGAAAAGAGGGAGAUGUUUUGUCCAGACCUACUAGACCCAACAGAAAAGGUUUUUGUAUUAGAAUCUGUGGAAUUCUCGGGUGCCAA`, “RBNS enrichment (R)” read 0.555.
Under “RBNS enrichment (R)”, `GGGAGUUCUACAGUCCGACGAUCAUUUCCUGUCAUAGGAAGCUCCUUGGAAGAAGGGAUGGGGGGAUGAGAUCAUGUUUACAGACCUGUUUUGUCAUCCUGCUGCCAAGAAGUUUUUUAAUCACUUGAAUAAAUGGAAUUCUCGGGUGCCAA` is recorded as 0.235.
`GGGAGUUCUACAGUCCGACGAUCGAGGGUCAUGGGUUUGCUUUUGCUGUUGUGACGCCUGUUCCCGUCUCUAUGUUAAAAUGCCAAAAAUGACCCAGUCUGUCGCUUUCCUCCGCCCCAGCGCUUCACAGCCGUGGAAUUCUCGGGUGCCAA` — result for “RBNS enrichment (R)”: 0.945.
For `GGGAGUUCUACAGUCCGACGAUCGCGGUUUUAUACUUUUUUUAUGAGUUAUGAUAGCAGCAAUUACGUUGUUUGUAUUUUGCUUAACUAAAACAAAAAUGCUUUUAUCUUGCUAUAGAAUAAACACAUUUCAGUGGAAUUCUCGGGUGCCAA`, “RBNS enrichment (R)” read 0.519.
Under “RBNS enrichment (R)”, `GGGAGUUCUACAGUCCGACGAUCGUUGUGUUAAUAUUUAGAAGAAGAUGUAUAUCUUCCAGAUUUUGUUAUAUAUUUGGCAUAAAAUACGGCUUACGUUGCUUAAGAUUCUCAGGGAUAAACUUCCUUUUGCUUGGAAUUCUCGGGUGCCAA` is recorded as 0.684.
`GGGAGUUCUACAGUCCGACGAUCGCACAUAGGCCAGUCCGAGUUCUUUCUUAACAAGAUGGCUGUUCUGGCCUGGCCAGCAGUCUGCAUGCUGAAGCUGCACCAAAGACAAGCGAAUGGGUCAUUUCUAAAGAUGGAAUUCUCGGGUGCCAA` — result for “RBNS enrichment (R)”: 10.8.
`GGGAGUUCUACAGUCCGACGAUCUACUGUCAAACAAUAAAGGGAGAAUGGUGCUGUUUAAAGUCACAUCCCUGUAAAUUGCAGAAUUCAAAAGUGAUUAUCUCUUUGAUCUACUUGCCUCAUUUCCCUAUCUUUGGAAUUCUCGGGUGCCAA`: “RBNS enrichment (R)” 0.39.
For `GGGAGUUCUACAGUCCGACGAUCCAAUCAAAGCACUUGGACUCUUGCUCUUUCUACUCUGAACUAAUAAAUCUGUUGCCAAGCUGGCUAGGAUCCGCUUUUUUUCAGCAAACACUGAGCACACAUUUUGCUAGUGGAAUUCUCGGGUGCCAA`, “RBNS enrichment (R)” read 0.464.
For `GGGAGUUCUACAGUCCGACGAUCCUGAGAUGGAUGACUGGCGUGAACAUGUCUCUGAAGUUGUACUUGAGAAGACAAGAAGAAUAAUGUCAACAGAACAACAUCACUUUGGGCCAAGCAUUUGAACACUUUUUUGGAAUUCUCGGGUGCCAA`, “RBNS enrichment (R)” read 0.426.
For `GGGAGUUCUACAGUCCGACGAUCAAAUAGAAACUAAUAAUAGCUCUAUUUCUCUGCCAAUAUAAAAUCUACCUUUCAUAUAAUGCUACAUUGAAGGCACAGAAUUUGCUACCAUCUCUCUCUCCCCCUACCUAUGGAAUUCUCGGGUGCCAA`, “RBNS enrichment (R)” read 0.975.

Block 5
Target: CCNA1, cyclin fold, Cln2 fusion (human)
Technique: yeast growth competition, sequencing
Sample: yeast
Notes: weak parent motif
Relative to: not given
Direction: higher = stronger binding
Starting sequence: REPIN1 docking peptide (human); QSFRGWVALVLHL
Under “normalised enrichment score”, `QAFRGWVALVLHL [S2A]` is recorded as -0.368.
`QSFRGAVALVLHL [W6A]`: “normalised enrichment score” -0.62.
Under “normalised enrichment score”, `QSFAGWVALVLHL [R4A]` is recorded as -0.532.
For `QSFRGWVAAVLHL [L9A]`, “normalised enrichment score” read -0.868.
`QSFRGWVALVAHL [L11A]`: “normalised enrichment score” -0.0897.
For `QSFRGWVALVLAL [H12A]`, “normalised enrichment score” read 0.0486.

Excerpt of the above (block 2):
`AAGTGATG` gave an E-score of -0.237.
With `GCGTCGCC` the E-score was 0.343.
For `ATACGAGC`, the E-score was -0.163.
`CAGCGATG` gave an E-score of -0.0179.
`AGCAGACT` gave an E-score of -0.0893.
For `CAACGGTG`, the E-score was 0.169.
`AATAGCGA` has an E-score of -0.0219.
